# Measured values from different studies.
# Parts stem from different laboratories: compare values within a part only. Changes are numbered by the printed parent chain.
# Chain of UniProt P61077 (whole entry, looked up): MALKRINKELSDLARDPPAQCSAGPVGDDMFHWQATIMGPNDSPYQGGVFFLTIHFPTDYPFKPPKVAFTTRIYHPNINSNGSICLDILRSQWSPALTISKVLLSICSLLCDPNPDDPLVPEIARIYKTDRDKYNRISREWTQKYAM

# Study 1 — method: DHFR PCA, dose-response; sample: yeast; setting: Hill fit, mean, not affinity; added: (+)-ABA, dose series; direction: lower = more sensitive
# Target: ABI1, truncated, D143A, DHFR fusion (Arabidopsis thaliana, UniProt P49597)
# Parent: PYL1, truncated, DHFR fusion (Arabidopsis thaliana, UniProt Q8VZS8); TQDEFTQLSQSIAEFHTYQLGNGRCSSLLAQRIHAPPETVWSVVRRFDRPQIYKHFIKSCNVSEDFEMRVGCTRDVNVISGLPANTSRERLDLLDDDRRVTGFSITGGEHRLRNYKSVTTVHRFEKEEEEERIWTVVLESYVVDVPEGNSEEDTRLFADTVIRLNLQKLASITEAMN
Change,ABA EC50 [µM]
R49A,2.68
T6R,5.72
E14A,6.97
G107C,76.9
R46N,15.9
G102V,206
R155M,6.88
V43W,275

# Study 2 — method: protein binding microarray; molecule type: double-stranded DNA, one strand shown; sample: in vitro; concentration: not given; reference: not given; direction: higher = stronger binding
# Target: Histone acetyltransferase KAT6A, both winged helices, GST fusion (KAT6A, Homo sapiens, UniProt Q92794, residues 1-181)
# Setting: 8-mer, flanks averaged, mean of 2 arrays, mostly near background
# Residues (chain): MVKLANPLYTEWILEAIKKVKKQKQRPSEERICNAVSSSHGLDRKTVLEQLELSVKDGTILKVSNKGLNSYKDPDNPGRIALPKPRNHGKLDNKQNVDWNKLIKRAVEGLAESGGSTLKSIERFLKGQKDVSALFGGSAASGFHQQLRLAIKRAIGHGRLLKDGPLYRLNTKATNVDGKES
Strand,E-score
ATATGATG,-0.133
GACTCCAC,-0.117
GACGAAAA,0.0485
ACTGGGCT,-0.176
AAACCTGA,-0.0971
AATTCATC,-0.0465
AGAATAAT,-0.121
AGAGGCGC,0.258

# Mixed results — sample: yeast; reference: not given
# P1: viral docking peptide; KGVKRKLFAEDSS; partner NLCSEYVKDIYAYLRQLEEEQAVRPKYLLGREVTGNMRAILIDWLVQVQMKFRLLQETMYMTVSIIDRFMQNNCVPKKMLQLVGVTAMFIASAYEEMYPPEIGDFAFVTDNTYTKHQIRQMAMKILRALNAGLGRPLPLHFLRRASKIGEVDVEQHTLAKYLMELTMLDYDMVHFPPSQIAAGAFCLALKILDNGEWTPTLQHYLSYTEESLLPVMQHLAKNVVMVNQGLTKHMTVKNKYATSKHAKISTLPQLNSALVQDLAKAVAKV
# B1: DZIP3 RING domain (UniProt Q86Y13); chain PDEEEEEEEPCVICHENLSPENLSVLPCAHKFHAQCIRPWLMQQGTCPTCRLHVLLPEEFP
Substance,target,test,setting,scale,endpoint,result
P1 K4F,"CCNB1, cyclin fold, Cln2 fusion (human)","yeast growth competition, sequencing",strong parent motif,higher = stronger binding,normalised enrichment score,0.793
B1 (DZIP3 RING domain),UBE2D3 UBC core domain (UniProt P61077),yeast two-hybrid,mostly zero background,higher = stronger interaction,lacZ reporter activity,0

# Repeated from above (mixed results):
Substance,target,test,setting,scale,endpoint,result
P1 K4F,"CCNB1, cyclin fold, Cln2 fusion (human)","yeast growth competition, sequencing",strong parent motif,higher = stronger binding,normalised enrichment score,0.793
